Measurements of several laboratories.
Lines come from different studies, so protocols differ. ± marks the error that the study gave.

Structure (SMILES) = CCOC(=O)[C@@H]1Cc2c(cc([N+](=O)[O-])cc2[N+](=O)[O-])[C@H](O)[C@]12C(=O)Nc1ccc(Br)cc12; test system = rat; setting = oral, 15 mg/kg; AUC(0-t) = 12500 ng·h/mL
Structure (SMILES) = CC[C@H](C)C(=O)N1CCC(NC(=O)Nc2ccc(OC(F)(F)F)c(F)c2)CC1; test system = human, plasma; setting = oral, 8 mg, single dose, healthy volunteers; AUC(0-t) = 3450 ng·h/mL
Structure (SMILES) = O=P1(NCCCl)NCCCO1 (stereo not drawn); test system = rat, plasma; setting = intravenous, 10 mg/kg, together with: ketoconazole 20 mg/kg oral 50 min before; AUC(0-t) = 518 ± 167 ng·h/mL
Structure (SMILES) = Cc1ccc(/C=C/C(=O)O)cc1-c1cc2c(cc1C)C(C)(C)CCC2(C)C; test system = rat Sprague-Dawley male, plasma; setting = oral, 100 mg/kg, sesame oil; AUC(0-t) = 24700 ng·h/mL
Structure (SMILES) = CSCC[C@H](NC(=O)CNC(=O)[C@H](CC(=O)O)NC(=O)[C@@H](NC(=O)[C@@H](NC(=O)[C@@H](NC(=O)CNC(=O)[C@H](CCC(N)=O)NC(=O)[C@H](CCSC)NC(=O)[C@H](CC(=O)O)NC(=O)[C@H](C)NC(=O)[C@H](C)NC(=O)[C@@H](NC(=O)[C@H](CO)NC(=O)[C@@H](N)CC(C)C)[C@@H](C)O)C(C)C)C(C)C)[C@@H](C)O)C(=O)N[C@@H](C)C(=O)N[C@@H](CO)C(=O)NCC(=O)N[C@@H](CC(C)C)C(=O)N[C@@H](CC(=O)O)C(=O)N[C@@H](CCCCN)C(=O)N[C@@H](CC(=O)O)C(=O)N[C@@H](Cc1ccc(O)cc1)C(=O)N[C@@H](CC(C)C)C(=O)N[C@@H](CCCCN)C(=O)N1CCC[C@H]1C(=O)N[C@@H](CC(=O)O)C(=O)N[C@@H](CC(=O)O)C(=O)O; test system = human, serum; setting = intravenous, 0.83 mg/kg, patients, infusion; AUC(0-t) = 240 ng·h/mL
Structure (SMILES) = O=C(CN1CCN(c2cc3c(cc2F)c(=O)c(C(=O)O)cn3C2CC2)CC1)Nc1ccc(Cl)cc1; test system = BALB/c mice, female, plasma; setting = iv, 1.25 mg/kg; AUC(0-t) = 88200 ng·h/mL
Structure (SMILES) = COc1ccc(F)cc1S(=O)(=O)Nc1cnc2c(c1)C(=O)NCCO2; test system = C57BL/6J mice, plasma; setting = oral, 3 mg/kg; AUC(0-t) = 1050 ± 350 ng‧h/mL
Structure (SMILES) = C[C@@H]1CC[C@H]2[C@@H](C)CO[C@@H]3O[C@@]4(C)CC[C@@H]1[C@]32OO4; test system = male Sprague-Dawley rat, plasma; setting = intravenous, 5 mg/kg; AUC(0-t) = 583 ng·h/mL
Structure (SMILES) = O=c1cc(-c2ccccc2)oc2c(Br)c(O)c(O)c(O)c12; test system = C57BL/6 mouse, plasma; setting = oral, 150 mg/kg, single dose; AUC(0-t) = 7650 ng·h/mL

A few entries again:
Structure (SMILES) = CC[C@H](C)C(=O)N1CCC(NC(=O)Nc2ccc(OC(F)(F)F)c(F)c2)CC1; test system = human, plasma; setting = oral, 8 mg, single dose, healthy volunteers; AUC(0-t) = 3450 ng·h/mL
